# Results of several laboratories.
# Numbered parts are unrelated; each lists some results of a single study.

# Sample 1 — technique: universal PBM; form: double-stranded DNA, one strand shown; medium: in vitro; concentration: not given; direction: higher = stronger binding
# Target: Sal-like protein 4, full length isoform B (SALL4, Homo sapiens, UniProt Q9UJQ4-2, residues 1-616)
# Setting: 8-mer, flanks averaged, mean of replicates
# Target sequence (chain): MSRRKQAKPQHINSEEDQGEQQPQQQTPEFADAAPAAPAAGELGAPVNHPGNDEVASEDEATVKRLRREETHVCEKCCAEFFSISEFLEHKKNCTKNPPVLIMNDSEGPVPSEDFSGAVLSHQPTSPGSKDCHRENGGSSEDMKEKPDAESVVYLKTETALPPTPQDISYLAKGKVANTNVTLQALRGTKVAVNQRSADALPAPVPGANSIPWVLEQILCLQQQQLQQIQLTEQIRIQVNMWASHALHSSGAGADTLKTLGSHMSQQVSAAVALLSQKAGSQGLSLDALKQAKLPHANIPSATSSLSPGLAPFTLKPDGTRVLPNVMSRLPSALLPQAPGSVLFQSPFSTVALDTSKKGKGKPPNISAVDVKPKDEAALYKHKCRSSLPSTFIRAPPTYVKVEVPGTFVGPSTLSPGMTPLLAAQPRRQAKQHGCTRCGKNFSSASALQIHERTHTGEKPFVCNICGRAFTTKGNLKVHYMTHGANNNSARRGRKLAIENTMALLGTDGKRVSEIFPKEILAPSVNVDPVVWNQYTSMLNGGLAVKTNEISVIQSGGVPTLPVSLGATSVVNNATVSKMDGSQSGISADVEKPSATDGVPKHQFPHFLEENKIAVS
Strand,E-score
AAAGCTGA,0.0676
AGGGACGG,-0.349
CTGAAGAC,-0.113
ACTATAGT,0.305
AGCCGAGA,-0.188
AAAAACGC,-0.0018
ACTGCGAT,0.00912
ACTCGTGA,-0.0217

# Sample 2 — technique: RNA Bind-n-Seq; form: RNA; medium: in vitro; concentration: 365 nM; relative to: no-protein control; direction: higher = stronger binding
# Target: RNA binding protein fox-1 homolog 2, RRM domain, GST-SBP tag (RBFOX2, Homo sapiens, UniProt O43251-10, residues 100-194)
# Setting: natural RNA segment, single round, ends assumed
# Target sequence (chain): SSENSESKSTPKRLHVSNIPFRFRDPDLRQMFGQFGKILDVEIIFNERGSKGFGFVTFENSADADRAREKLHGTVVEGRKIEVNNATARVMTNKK
Strand,RBNS enrichment (R)
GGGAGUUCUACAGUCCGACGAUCUUAGGACAGUGGUCACUUUCUAGUUGCCGUCUUCACAGACAAACUUGAAAGGUAUUAAGGAAAAAAUUCCACAUAGCUCUGGGCCUUUUUUGUAUUCUGAUUGCCACGUUUGGAAUUCUCGGGUGCCAA,0.395
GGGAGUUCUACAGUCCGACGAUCUGGACACCAGUGACCAUGCACAGUUGUGUUCCUUGCAUUCUAAGUCAGUGGAGGGAAGCAGAGCUUUGAGUGACACACGAGUGUUGGGGUUUCCUGCUGCCUGCCCUGGCUGGAAUUCUCGGGUGCCAA,0.755
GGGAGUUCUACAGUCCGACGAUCAUGUAAAAUAAAAAUAAAUAACUCUUUUAAAAUAAUCAUUUUUUUAAAAAUGGACUUGCAAACUCAUAGUACCUGGCUGCACACGUCCUCGCCUCUGUUUGUCUGGCUCUUGGAAUUCUCGGGUGCCAA,0.73
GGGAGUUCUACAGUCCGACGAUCCCAGGAGUGAAGGCAGAUUUAGGGAAAUAAACAUUGUGUGUUAAAUCUUUUACUGACCUGGGUUUUCUCCUGGUUUACGUCUGUCUUUUGUAAAUCAAUAAUUACAAGGAUGGAAUUCUCGGGUGCCAA,0.384
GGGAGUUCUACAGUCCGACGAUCAACCUUAUGAGCAGUGUACAAAUAUCAUGAGACAACUGAUCAGCACUUGCACCUGAUCAAGAGCAGUGCUGCUCCAUUUGUUUUGCAAAGAUAUGUUUUCAUUUCCUGUAUGGAAUUCUCGGGUGCCAA,0.329
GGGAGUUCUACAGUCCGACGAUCAGAUUUCAAGCUGUGUUGGUGUUGGGACCAGCAGAAGGCAAACGUCCAGCCAACACACAGGACUGUAAGAGGACUCUGAGCUACGUGCCCUGUGAAGACCCCCAGGCUUUUGGAAUUCUCGGGUGCCAA,0.472
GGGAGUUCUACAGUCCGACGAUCCUAGGAGCUUUAGAAGUCUUUAUGUUCUUCCUGCCAUCAUUCCUCCUUUUCCCACAGGGAAAGAAAAGUUGGAUCACUAGUGGCCAGCAUCCCCAGAGUUCCGUUAGUAAUGGAAUUCUCGGGUGCCAA,0.244
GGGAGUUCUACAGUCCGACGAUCAGGACAGCCCCACCCUGGAAUGCCAAUGUCAGCCUCAAGCCCCUCGGUUCUUAACACAGGAGACCCGACAAUGAGUGCACAAGUCAUGGACAUUCACGCUCAGUAGCUUAUGGAAUUCUCGGGUGCCAA,0.52
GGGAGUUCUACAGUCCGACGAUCAGUCUUGUGCUGUUCCCAGAACAGGACGACAGUGAAAAGAACACUCUUGACCCUACACUGAAGGCUGAAGGCAGAAGCCACAAGAGGCCUUGAGUGCCACCCCCAGGGAAUGGAAUUCUCGGGUGCCAA,0.133
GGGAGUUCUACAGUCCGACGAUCUGUGGGUGAGGGGCUCAAGGCCCCCCUGGAGGACCUUGGUCUCGAAGCCAUACGUGGUUGUCUGCCUUCCUGAGCAAGGCUUCUCAUCCCAUAUUAAAGGAUCAUCAUCAUGGAAUUCUCGGGUGCCAA,0.25

# Sample 3 — technique: RNAcompete; form: RNA; medium: in vitro; concentration: 20 nM; setting: 7-mer, probes averaged, single round; relative to: mean of 7-mers; direction: higher = stronger binding
# Target: PABPC1L2, full length, GST fusion (mouse, UniProt A0ABA7IW68)
# Construct (chain): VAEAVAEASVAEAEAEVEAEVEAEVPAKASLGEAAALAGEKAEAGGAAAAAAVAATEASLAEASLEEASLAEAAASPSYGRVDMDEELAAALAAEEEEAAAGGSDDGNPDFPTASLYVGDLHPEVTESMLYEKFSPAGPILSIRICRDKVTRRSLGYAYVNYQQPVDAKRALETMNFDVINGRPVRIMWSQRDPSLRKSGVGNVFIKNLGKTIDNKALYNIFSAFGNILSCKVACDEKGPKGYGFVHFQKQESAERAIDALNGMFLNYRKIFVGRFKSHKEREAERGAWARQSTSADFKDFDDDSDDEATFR
Strand,7-mer Z-score
UUGUAGU,-0.286
CACUGCC,-0.235
ACGGUUA,0.0315
GUAGUUC,-0.311
CGAGUGA,0.0805
AUCGAGG,-0.0192
AGCUCAG,-0.222

# Single results of other studies
Molecule,target,assay,system,conditions,how to read,quantity,result
"PhoQ, residues 284 288 289 292 302 303 TSTLRA","PhoP, residues 12 14 15 18 19 VQALL (Escherichia coli, UniProt P23836)","Sort-seq, measured: YFP reporter",E. coli,"PhoQ-PhoP variant library, together with: 10 µM Mg2+","relative to: high Mg2+ state, higher = stronger signaling",fold induction,16.3
